Measured values pooled from the literature.
Each line is one published result; not all experiments were run side by side. Several values in a cell are separate wells, animals, samples, runs or records. ± gives the spread as reported.
Gria1/Gria2: Glutamate receptor AMPA 1/2 (Gria1/Gria2, Rattus norvegicus, UniProt P19490+P19491)
UniProt Q7Z5P4, sequence (whole entry, looked up): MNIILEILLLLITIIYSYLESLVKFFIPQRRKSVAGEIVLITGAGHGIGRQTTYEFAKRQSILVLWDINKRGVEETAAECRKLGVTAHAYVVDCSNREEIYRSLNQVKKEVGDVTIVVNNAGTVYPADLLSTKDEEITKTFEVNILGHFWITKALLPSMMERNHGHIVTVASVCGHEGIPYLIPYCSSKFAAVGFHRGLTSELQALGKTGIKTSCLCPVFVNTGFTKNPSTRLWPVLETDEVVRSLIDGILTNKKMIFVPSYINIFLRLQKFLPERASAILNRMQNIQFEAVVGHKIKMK
UniProt P46089, sequence (whole entry, unmodified, looked up): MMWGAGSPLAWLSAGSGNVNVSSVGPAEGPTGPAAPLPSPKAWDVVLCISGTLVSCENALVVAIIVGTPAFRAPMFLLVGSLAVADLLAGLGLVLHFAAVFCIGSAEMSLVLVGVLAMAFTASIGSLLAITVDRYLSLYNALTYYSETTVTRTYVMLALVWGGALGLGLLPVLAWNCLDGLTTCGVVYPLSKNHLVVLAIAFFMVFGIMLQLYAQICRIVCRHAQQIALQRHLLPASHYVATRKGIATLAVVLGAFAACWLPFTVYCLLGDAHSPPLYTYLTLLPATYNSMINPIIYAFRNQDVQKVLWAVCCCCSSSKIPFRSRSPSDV
UniProt P34972, sequence (whole entry, looked up): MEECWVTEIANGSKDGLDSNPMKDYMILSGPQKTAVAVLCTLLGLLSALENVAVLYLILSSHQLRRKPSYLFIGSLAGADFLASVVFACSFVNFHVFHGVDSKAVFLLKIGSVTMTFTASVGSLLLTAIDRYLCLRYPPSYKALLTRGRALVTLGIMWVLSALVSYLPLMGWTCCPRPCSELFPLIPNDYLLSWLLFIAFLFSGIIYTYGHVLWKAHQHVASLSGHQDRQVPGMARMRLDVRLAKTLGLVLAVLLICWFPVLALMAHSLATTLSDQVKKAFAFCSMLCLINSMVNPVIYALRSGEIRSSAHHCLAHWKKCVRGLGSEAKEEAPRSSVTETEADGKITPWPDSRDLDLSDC
UniProt P19490, sequence (whole entry, looked up): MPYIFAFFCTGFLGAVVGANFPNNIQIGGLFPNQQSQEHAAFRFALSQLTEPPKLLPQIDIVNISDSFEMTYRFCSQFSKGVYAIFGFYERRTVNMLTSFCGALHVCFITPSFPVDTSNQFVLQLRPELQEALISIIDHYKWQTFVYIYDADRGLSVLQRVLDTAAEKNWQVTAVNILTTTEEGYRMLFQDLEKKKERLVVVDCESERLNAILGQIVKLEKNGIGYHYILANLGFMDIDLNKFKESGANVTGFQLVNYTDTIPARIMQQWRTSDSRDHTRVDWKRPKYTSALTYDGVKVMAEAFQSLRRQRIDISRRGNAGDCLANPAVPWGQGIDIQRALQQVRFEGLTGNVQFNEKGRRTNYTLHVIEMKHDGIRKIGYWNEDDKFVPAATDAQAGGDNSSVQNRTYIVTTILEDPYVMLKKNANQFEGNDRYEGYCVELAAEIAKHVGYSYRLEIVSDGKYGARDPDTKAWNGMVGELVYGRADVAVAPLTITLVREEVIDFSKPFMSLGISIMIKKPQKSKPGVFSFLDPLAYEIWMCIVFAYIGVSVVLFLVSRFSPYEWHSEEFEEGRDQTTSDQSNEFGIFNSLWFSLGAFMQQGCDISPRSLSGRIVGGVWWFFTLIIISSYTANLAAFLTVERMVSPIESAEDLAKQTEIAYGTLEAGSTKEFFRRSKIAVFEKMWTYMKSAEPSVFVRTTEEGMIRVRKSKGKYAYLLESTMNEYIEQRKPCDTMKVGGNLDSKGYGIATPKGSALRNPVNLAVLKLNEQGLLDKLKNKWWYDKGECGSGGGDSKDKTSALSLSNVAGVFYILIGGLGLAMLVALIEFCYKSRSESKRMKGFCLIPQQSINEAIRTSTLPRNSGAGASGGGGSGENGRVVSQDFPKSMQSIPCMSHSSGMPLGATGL
UniProt P19491, sequence (whole entry, looked up): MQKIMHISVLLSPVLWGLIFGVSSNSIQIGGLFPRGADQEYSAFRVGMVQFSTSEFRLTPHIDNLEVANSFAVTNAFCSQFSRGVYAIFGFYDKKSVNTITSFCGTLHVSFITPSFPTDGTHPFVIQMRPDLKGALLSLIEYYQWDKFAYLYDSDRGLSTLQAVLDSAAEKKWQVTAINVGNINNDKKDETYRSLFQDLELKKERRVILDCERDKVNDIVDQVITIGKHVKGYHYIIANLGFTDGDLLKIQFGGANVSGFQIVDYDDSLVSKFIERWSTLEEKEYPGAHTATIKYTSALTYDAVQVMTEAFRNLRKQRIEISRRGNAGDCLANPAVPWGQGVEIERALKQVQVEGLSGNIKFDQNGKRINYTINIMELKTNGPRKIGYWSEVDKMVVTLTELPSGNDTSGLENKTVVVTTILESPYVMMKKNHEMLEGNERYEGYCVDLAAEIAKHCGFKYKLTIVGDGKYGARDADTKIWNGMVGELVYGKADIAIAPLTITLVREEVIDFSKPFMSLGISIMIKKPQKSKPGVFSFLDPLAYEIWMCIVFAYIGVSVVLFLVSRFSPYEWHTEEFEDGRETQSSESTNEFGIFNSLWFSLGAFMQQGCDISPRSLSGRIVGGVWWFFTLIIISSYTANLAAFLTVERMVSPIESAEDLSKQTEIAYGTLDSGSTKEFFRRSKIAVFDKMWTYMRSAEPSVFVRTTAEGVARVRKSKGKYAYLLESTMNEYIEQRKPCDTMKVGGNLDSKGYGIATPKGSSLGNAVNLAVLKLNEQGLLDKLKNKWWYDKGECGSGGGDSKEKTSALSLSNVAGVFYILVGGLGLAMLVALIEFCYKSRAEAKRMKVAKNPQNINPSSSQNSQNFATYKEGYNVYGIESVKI
UniProt Q9Y5S1, sequence (whole entry, looked up): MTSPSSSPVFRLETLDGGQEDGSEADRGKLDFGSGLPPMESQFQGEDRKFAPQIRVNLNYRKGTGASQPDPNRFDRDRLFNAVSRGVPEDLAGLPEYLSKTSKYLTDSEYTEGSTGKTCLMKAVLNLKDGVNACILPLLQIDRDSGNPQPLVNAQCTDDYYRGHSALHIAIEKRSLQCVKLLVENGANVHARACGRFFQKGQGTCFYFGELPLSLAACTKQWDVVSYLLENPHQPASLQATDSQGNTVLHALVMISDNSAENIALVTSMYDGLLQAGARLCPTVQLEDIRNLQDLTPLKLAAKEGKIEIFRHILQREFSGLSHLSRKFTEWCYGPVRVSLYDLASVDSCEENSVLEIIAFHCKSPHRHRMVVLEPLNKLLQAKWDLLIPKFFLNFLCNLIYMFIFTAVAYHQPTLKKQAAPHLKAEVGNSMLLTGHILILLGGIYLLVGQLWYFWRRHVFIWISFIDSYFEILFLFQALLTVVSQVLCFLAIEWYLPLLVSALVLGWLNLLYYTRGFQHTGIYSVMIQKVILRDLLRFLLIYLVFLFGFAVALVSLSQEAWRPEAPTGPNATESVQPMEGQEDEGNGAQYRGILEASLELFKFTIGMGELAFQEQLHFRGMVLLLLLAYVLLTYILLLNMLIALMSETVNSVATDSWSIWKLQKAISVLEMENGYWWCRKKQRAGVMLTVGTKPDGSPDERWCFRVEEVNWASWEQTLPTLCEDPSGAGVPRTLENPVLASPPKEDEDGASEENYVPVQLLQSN
UniProt Q8TDU9, sequence (whole entry, unmodified, looked up): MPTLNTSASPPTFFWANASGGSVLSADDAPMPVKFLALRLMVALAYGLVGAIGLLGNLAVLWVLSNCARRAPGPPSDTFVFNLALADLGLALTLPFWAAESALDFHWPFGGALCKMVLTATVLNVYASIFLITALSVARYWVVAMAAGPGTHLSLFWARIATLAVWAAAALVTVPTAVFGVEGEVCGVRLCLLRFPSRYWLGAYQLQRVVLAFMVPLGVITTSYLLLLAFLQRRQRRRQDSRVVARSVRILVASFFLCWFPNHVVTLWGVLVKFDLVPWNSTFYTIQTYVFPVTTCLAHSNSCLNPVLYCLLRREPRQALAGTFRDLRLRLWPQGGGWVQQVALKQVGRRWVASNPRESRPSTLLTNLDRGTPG
UniProt Q9Y345, sequence (whole entry, looked up): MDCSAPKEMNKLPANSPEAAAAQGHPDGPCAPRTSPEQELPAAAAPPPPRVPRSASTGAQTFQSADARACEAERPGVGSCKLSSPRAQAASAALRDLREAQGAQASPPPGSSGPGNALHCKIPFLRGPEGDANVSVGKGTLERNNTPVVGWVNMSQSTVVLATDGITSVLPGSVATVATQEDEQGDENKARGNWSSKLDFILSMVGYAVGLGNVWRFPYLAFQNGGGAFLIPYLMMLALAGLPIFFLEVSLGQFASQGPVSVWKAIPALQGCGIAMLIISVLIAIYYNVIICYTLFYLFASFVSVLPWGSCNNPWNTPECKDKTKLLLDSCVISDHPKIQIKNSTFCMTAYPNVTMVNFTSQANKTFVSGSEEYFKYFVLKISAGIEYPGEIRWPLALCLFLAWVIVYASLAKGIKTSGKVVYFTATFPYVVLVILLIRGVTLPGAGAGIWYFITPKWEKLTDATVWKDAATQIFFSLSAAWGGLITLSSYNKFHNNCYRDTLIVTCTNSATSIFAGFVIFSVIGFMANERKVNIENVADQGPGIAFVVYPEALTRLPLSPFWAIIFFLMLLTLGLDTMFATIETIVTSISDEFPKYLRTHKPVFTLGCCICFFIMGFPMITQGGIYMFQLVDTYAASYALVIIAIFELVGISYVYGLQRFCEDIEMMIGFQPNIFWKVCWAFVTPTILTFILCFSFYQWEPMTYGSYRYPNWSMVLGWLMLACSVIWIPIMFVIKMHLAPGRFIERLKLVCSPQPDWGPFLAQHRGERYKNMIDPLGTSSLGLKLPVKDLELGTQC

SMILES = CC[C@H](C)[C@@H]1NC(=O)[C@H](Cc2ccccc2)NC(=O)[C@H](CCC(=O)O)NC(=O)[C@H](CCCNC(=N)N)NC(=O)CNC(=O)[C@@H](NC(=O)[C@H](CC(C)C)NC(=O)[C@H](CCCNC(=N)N)NC(=O)[C@@H](NC(=O)CNC(=O)[C@H](Cc2ccc(O)cc2)NC(=O)[C@@H]2CCCN2C(=O)[C@H](C)NC(=O)[C@H](C)NC(=O)[C@@H](N)CCCNC(=N)N)C(C)C)CSSC[C@@H]2NC(=O)[C@@H](NC(=O)[C@H](CO)NC(=O)[C@H](CO)NC(=O)[C@H](CO)NC(=O)[C@H](CC(C)C)NC(=O)CNC(=O)[C@H](C)NC(=O)[C@H](CC(C)C)NC(=O)[C@@H](NC(=O)[C@@H](N)CC(=O)O)C(C)C)CSSC[C@H](NC(=O)CNC(=O)[C@H](Cc3c[nH]c4ccccc34)NC(=O)[C@H](CCCCN)NC2=O)C(=O)N[C@@H](CO)C(=O)N[C@@H](CCCCN)C(=O)N[C@@H](CO)C(=O)N[C@@H](CCC(=O)O)C(=O)N[C@@H]([C@@H](C)CC)C(=O)N[C@@H](CO)C(=O)N[C@@H](CO)C(=O)N[C@@H](CC(C)C)C(=O)N[C@H](C(=O)O)CSSC[C@@H](C(=O)NCC(=O)NCC(=O)N[C@@H](CO)C(=O)N[C@@H](CCCNC(=N)N)C(=O)N[C@@H](Cc2c[nH]c3ccccc23)C(=O)O)NC(=O)[C@H]([C@@H](C)O)NC(=O)[C@H](Cc2ccccc2)NC(=O)[C@H]([C@@H](C)CC)NC(=O)[C@H](C(C)C)NC(=O)[C@H](C)NC(=O)[C@H](CCCNC(=N)N)NC1=O; tested on = Relaxin-3 receptor 2 (RXFP4, Homo sapiens, UniProt Q8TDU9, Q205A); test system = HEK-293T; scale = relative to: wild type; endpoint = Emax; value = 92.3 ± 6.49%
SMILES = O=C1C[C@H](c2nc(-c3ccc(F)c4cn[nH]c34)no2)CCCN1c1ccc(F)cc1 (racemic); tested on = Cannabinoid receptor 2 (CNR2, Homo sapiens, UniProt P34972); test = agonist, GloSensor cAMP; test system = CHO expressing CB2; conditions = 100 pM; endpoint = cAMP inhibition; value = 5.71% and -1.14% and 0%
SMILES = OC[C@H]1c2[nH]cnc2[C@H](O)[C@@H](O)[C@@H]1O; tested on = bglA (Thermotoga maritima, UniProt Q08638); test = ITC; conditions = pH 6.8, 25 °C; endpoint = ΔG; value = -6.21 ± 0.143 kcal/mol
SMILES = C#CCCCCNC(=O)c1ccc(N(C(=O)C=C)c2ccc(Br)cc2)cc1; tested on = Transient receptor potential cation channel subfamily V member 2 (Homo sapiens, UniProt Q9Y5S1); test = mass spectrometry profiling, refers to: TRPV2; test system = H460 cell lysate; conditions = 100 µM over 10 µM, UniProt Q9Y5S1; scale = relative to: high over low concentration; endpoint = reactivity ratio; value = 1.59
SMILES = CC(=O)c1cnc(NS(=O)(=O)c2ccc(Cl)c(Cl)c2)nc1; tested on = 17-beta-hydroxysteroid dehydrogenase 13 (Homo sapiens, UniProt Q7Z5P4); test = enzyme activity; test system = human hepatocytes, HSD17B13 siRNA, culture medium; conditions = 120 h; scale = relative to: scramble siRNA control; endpoint = oxidized product ratio; value = 0.0502 and 0.0465 and 0.0513 and 0.0488
SMILES = N#CSCCCCCCOc1ccc2c(-c3ccccc3)cc(=O)oc2c1; tested on = Carbonic anhydrase 12 (CA12, Homo sapiens, UniProt O43570); test = stopped-flow CO2 hydration; scale = relative to: Ki CA II over Ki CA XII; endpoint = selectivity ratio; value = > 794
SMILES = COC(=O)Cc1cc2c(cc1C(=O)c1ccccc1Cl)OCO2; tested on = Gria1/Gria2; test = glutamate-evoked current, whole-cell patch clamp; test system = HEK-293T; conditions = concentration not given, glutamate alone after washout, together with: glutamate; endpoint = current amplitude after recovery; value = 539 ± 39 pA
SMILES = C[N+]1(C)CCCC1; tested on = Chrnd/Chrna1/Chrne (Mus musculus, UniProt P02716+P04756+P20782, G173P/S470W); test = binding, agonist, single-channel recording; conditions = binding site chain P side; endpoint = koff; value = 2500 s⁻¹
SMILES = CCCCCC=CC=C1C(=O)C=CC1CC=CCCCC(=O)O (stereo not drawn); tested on = Protein deacetylase HDAC6 (HDAC6, Homo sapiens, UniProt Q9UBN7); test = competitive isoTOP-ABPP; test system = Ramos soluble proteome; conditions = 100 µM, together with: iodoacetamide probe; scale = relative to: DMSO over compound-treated, higher = stronger cysteine blockade; endpoint = isoTOP-ABPP competition ratio; value = 2
SMILES = O=C1c2sc(-c3ccc(N4CCC(F)C4)nc3F)nc2CCN1c1cccnc1 (stereo not drawn); tested on = TAR DNA-binding protein 43, aggregated (TARDBP, Homo sapiens, UniProt Q13148); test = saturation autoradiography; test system = human, FTLD-TDP type A brain sections; conditions = 23.95 nM; endpoint = specific binding; value = 100 nM
SMILES = Cn1c(=O)n(C2CCC(=O)NC2=O)c2ccc(C3CCN(CC(=O)Nc4cccc(CS(=O)(=O)N5CC[C@H](Nc6cccc(-c7sc(C(=O)O)c(OCC(=O)O)c7Cl)c6)CC5(C)C)c4)CC3)cc21 (stereo partly drawn); tested on = Tyrosine-protein phosphatase non-receptor type 2 (PTPN2, Homo sapiens, UniProt P17706, H30A/P33A/R35A); test = degrader, bio-layer interferometry; conditions = 125 nM; scale = higher = more binding; endpoint = BLI binding response; value = 0.403 a.u.
SMILES = CC(C)[C@@H]1NC(=O)[C@H](Cc2ccccc2)NC(=O)CSC[C@@H](C(N)=O)NC(=O)[C@H](CCC(=O)O)NC(=O)[C@H](CO)NC(=O)[C@H](Cc2c[nH]c3ccccc23)NC(=O)[C@H](C(C)C)NC(=O)[C@H](C(C)C)NC(=O)[C@H](Cc2ccc(O)cc2)NC(=O)[C@H](CC(=O)O)NC(=O)[C@H](Cc2c[nH]c3ccccc23)NC(=O)[C@H](Cc2ccc(O)cc2)NC(=O)[C@H](Cc2c[nH]c3ccccc23)NC(=O)[C@H](CCC(=O)O)NC1=O; tested on = Interleukin-1 receptor-like 2 (IL1RL2, Homo sapiens, UniProt Q9HB29); test = IL-8 release, antagonist; test system = A-431; conditions = 4 µM, 18 h, together with: IL-36 10 ng/mL; scale = relative to: untreated; endpoint = remaining activity; value = 52.3%
SMILES = CCOc1cc(CN2CCCC(CNC(=O)c3ccc(F)cc3)C2)ccc1OC (stereo not drawn); tested on = Trypanosoma cruzi; test = reporter mRNA translation, inhibitor, refers to: capped polyadenylated Renilla luciferase mRNA; test system = cell-free extract; conditions = concentration not given; scale = relative to: control RNA; endpoint = relative translation; value = 102%
SMILES = CCOC(=O)CCCc1cccc2c(-c3ccc(Oc4ccccc4)cc3)ccnc12; tested on = Glideosome-associated protein 50 (GAP50, Plasmodium falciparum, UniProt Q8I2X3); test = binding, surface plasmon resonance; conditions = 1:1 binding model; endpoint = koff; value = 0.0415 s⁻¹
SMILES = CC[C@H](C)C(=O)O[C@H]1C[C@@H](C)C=C2C=C[C@H](C)[C@H](CC[C@@H]3CC=CC(=O)O3)[C@H]21; tested on = Cystic fibrosis transmembrane conductance regulator (CFTR, Homo sapiens, UniProt P13569); test = chloride current, inhibitor; test system = T84, basolaterally permeabilized, apical membrane; conditions = together with: forskolin, compound C pretreatment; endpoint = IC50; value = 2060 nM
SMILES = O[C@@H]1[C@@H](O)[C@H](Cl)C=C[C@H]1O; tested on = Lysosomal acid glucosylceramidase (GBA1, Homo sapiens, UniProt P04062); test = continuous progress curves; conditions = pH 5.2, 25 °C, 0.1% BSA; endpoint = kinact/Ki; value = 6.9 ± 0.1 M⁻¹ s⁻¹
SMILES = COc1cc(Nc2nccc(-c3cnn4nc(OC)ccc34)n2)cc(C(F)(F)F)c1; tested on = Tyrosine-protein kinase ABL1, phosphorylated (ABL1, Homo sapiens, UniProt P00519, M351T); test = binding; conditions = 1 µM; endpoint = remaining binding; value = 100%
SMILES = COC[C@@H]([C@H](O)[C@H](O)C(=O)NCC[C@H](C)c1nc(/C=C/C[C@@H]2O[C@]3(C[C@@H](O)[C@@H]2C)O[C@H]([C@H](C[C@H](O)[C@H](C)[C@H](O)[C@H](C)/C=C(C)/C(C)=C/C=C/C(C)=C\C#N)OC)[C@H](OP(=O)(O)OP(=O)(O)O)C3(C)C)co1)N(C)C; tested on = recombinant CalL-strep; test = substrate; endpoint = Km; value = 26.7 ± 8.93 µM
SMILES = CC(C)Oc1cc(Cl)ccc1CNc1cc(-c2ccccc2)nc2ncnn12; tested on = G-protein coupled receptor 3 (GPR3, Homo sapiens, UniProt P46089, Q211A); test = cAMP level, cAMP GloSensor; conditions = 1 nM; scale = higher = more cAMP; endpoint = cAMP luminescence; value = 32800 a.u. and 33500 a.u. and 49400 a.u. and 40700 a.u.
SMILES = O=C(O)Cc1cc2c(cc1C(=O)c1ccc(Cl)cc1Cl)OCO2; tested on = Gria1/Gria2; test = glutamate-evoked current, whole-cell patch clamp; test system = HEK-293T; conditions = concentration not given; endpoint = current amplitude; value = 61 ± 4 pA
SMILES = CCCCCCCCCCCCCCCC(=O)NCCCC[C@H](NC(=O)[C@H](CCC(=O)O)NC(=O)[C@H](Cc1ccc(O)cc1)NC(=O)[C@H](CCC(=O)O)NC(=O)COCC(=O)NCCCOCCOCCOCCCNC(=O)[C@H](Cc1c[nH]c2ccccc12)NC(=O)[C@H](CCCCN)NC(=O)[C@H](C)NC(=O)[C@H](CCCCNC(=N)N)NC(=O)[C@H](CCC(N)=O)NC(=O)[C@H](Cc1c[nH]cn1)NC(=O)[C@H](CCSC)NC(=O)[C@H](CC(C)C)NC(=O)[C@H](CCC(N)=O)NC(=O)[C@@H](NC(=O)[C@H](CCC(=O)O)NC(=O)C(C)(C)NC(=O)[C@@H](NC(=O)C(C)(C)N)C(C)C)[C@@H](C)CC)C(=O)N[C@@H](CCC(=O)O)C(=O)N[C@@H](Cc1ccc(O)cc1)C(=O)N[C@@H](CCC(=O)O)C(N)=O; tested on = Parathyroid hormone/parathyroid hormone-related peptide receptor (PTH1R, Homo sapiens, UniProt Q03431); test = agonist; test system = Saos-2 with cAMP reporter; conditions = 3.16 pM, 30 min, ligand-on phase; scale = higher = more cAMP; endpoint = cAMP luminescence AUC; value = 1.6 a.u.
SMILES = O=C(N1CCCC1)n1cc(-c2ccc(-c3ccccc3)cc2)nn1; tested on = Acyl-coenzyme A thioesterase 2, mitochondrial (Acot2, Mus musculus, UniProt Q9QYR9); test = probe labelling, inhibitor, competitive ABPP-SILAC, refers to: Acot2; test system = mouse T cells; conditions = concentration not given, 4 h, protein level; scale = relative to: treated over DMSO cells, lower = stronger inhibition; endpoint = SILAC activity ratio; value = 1.17
SMILES = O=C(NC1CCN(Cc2ccccc2)CC1)c1cccc(-c2ccccc2)c1; tested on = Sodium- and chloride-dependent glycine transporter 2 (Homo sapiens, UniProt Q9Y345); test = MS binding competition; conditions = 10 µM; endpoint = remaining specific binding; value = 92.2 ± 3.5%
SMILES = CCCCC(=O)NC(c1ccc(N(CC)CC)cc1)c1ccc2cccnc2c1O (stereo not drawn); tested on = Trypanosoma cruzi; test = reporter mRNA translation, inhibitor, refers to: capped polyadenylated Renilla luciferase mRNA; test system = cell-free extract; conditions = concentration not given; scale = relative to: control RNA; endpoint = relative translation; value = 116%

Repeated from above:
SMILES = OC[C@H]1c2[nH]cnc2[C@H](O)[C@@H](O)[C@@H]1O; tested on = bglA (Thermotoga maritima, UniProt Q08638); test = ITC; conditions = pH 6.8, 25 °C; endpoint = ΔG; value = -6.21 ± 0.143 kcal/mol
SMILES = O[C@@H]1[C@@H](O)[C@H](Cl)C=C[C@H]1O; tested on = Lysosomal acid glucosylceramidase (GBA1, Homo sapiens, UniProt P04062); test = continuous progress curves; conditions = pH 5.2, 25 °C, 0.1% BSA; endpoint = kinact/Ki; value = 6.9 ± 0.1 M⁻¹ s⁻¹
SMILES = CC(C)Oc1cc(Cl)ccc1CNc1cc(-c2ccccc2)nc2ncnn12; tested on = G-protein coupled receptor 3 (GPR3, Homo sapiens, UniProt P46089, Q211A); test = cAMP level, cAMP GloSensor; conditions = 1 nM; scale = higher = more cAMP; endpoint = cAMP luminescence; value = 32800 a.u. and 33500 a.u. and 49400 a.u. and 40700 a.u.
